Measured values of several laboratories.
Parts stem from different laboratories: compare values within a part only. Positions count from the first letter of the parent shown.

Set 1
Target: RING finger protein unkempt homolog, zinc fingers 1-6, GST-SBP tag (UNK, Homo sapiens, UniProt Q9C0B0, residues 30-357)
Method: RNA Bind-n-Seq
Form: RNA
Matrix: in vitro
Tested at: not given
Setting: RNA with constant flanks, ends assumed
Baseline: input RNA pool
Reading: higher = stronger binding
Residues (chain): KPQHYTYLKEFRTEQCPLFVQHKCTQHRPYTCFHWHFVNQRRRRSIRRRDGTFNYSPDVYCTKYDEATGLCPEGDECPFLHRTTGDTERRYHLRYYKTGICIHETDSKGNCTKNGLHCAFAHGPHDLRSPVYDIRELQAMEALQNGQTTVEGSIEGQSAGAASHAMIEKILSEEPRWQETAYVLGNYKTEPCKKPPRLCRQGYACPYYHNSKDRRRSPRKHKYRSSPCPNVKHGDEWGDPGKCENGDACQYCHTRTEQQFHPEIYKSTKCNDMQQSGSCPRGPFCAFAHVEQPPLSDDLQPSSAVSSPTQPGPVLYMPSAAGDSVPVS
Oligonucleotide | bound/input enrichment [ratio]
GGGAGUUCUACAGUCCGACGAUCACUAUCGUUCCUGGCUAUGAUUUCUUGGUGAAUUCUGUGUGGCCAGAAAUAGUUCGAGGCCCCGAGGAAAAGCUACCCUCGCUCUUCAACCCUGGGGACCCAGACGCCUUUCACCAGAAACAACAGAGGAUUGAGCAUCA | 0.184
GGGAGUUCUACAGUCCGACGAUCCUGUCUGUCCACACCAUGGUCUCCUCAGUCCCCUCCACGCCAGCCCCUCUUCCCCACACCCCGCCGGUGUGCUACACCUCCCUUUGCCAGUCAUCCCGCCAUGGAUGGGGAGCCUACUUGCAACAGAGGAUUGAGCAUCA | 0.307
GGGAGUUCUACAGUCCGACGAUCUCUGAGAAUUACAAACAGAAGAUAGAAAGAAGUCUUAAAGCUGGUACAGUUAAAGAAUGUAUCCGUCUCAGAAGCUGUGUAUGUUUAUGUGAUAGAAUCUAAAUAAAAUACAGACAUCUACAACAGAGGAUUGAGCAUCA | 0.256
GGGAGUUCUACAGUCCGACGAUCUGGUUCUCCUCCAACUGAGAAAGCUUACAGUACAAUUUAAAGUGGGUCUCGCCUGCACUUACCCGUGUCUGACGAAACAGUCUUACAUCUGCCUAAGUAAUAGAAGAGCCCUGCAGAAUACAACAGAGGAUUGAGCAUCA | 0.0996
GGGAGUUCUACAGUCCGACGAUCCCUGAGAUAGUGCUGUGGUUAUAAUGUCUUUUACUAUUGUAUUAAUGGCUAGCCUGUUACAUCCGACUGGGGGGGGGGUACAGAGGUCUGCUGUUUUGUGAGGCUUUUUGUUUUUUUGGGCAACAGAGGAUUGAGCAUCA | 1.46
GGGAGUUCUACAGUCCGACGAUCACAGCCAUGGCAACUAGUCUCACGAACGUAGGAAAUUCAUUUAGUGGCCCACCUAAUCCUUCCGUGUCUAGAUCUAGUAAGUUUCAGAACUCAUCAGUAGAAGAUGAUGAUGACGUUGUUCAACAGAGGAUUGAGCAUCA | 11
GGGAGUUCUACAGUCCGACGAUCAGCAAAGAAGAAGUUAUCCGCUUUUUGGAAAGUACCCCGGCCAGCCUGAAUCUGGAAGACACCGAAGACCUGUUCUCUUUGGCUCAGUAUUACUGUAGUAAGACGCCAGCUUCUUUUAGGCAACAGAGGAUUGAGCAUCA | 0.229
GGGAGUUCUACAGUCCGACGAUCUUAGGUUCACAUACCUGCCUGCUAGUCGGGCAACAUGAAGUAGGACAGUUCUGUUGAUUUUUCCGGGCCAUACUAAAGGGAAUGAGCUGAAACAGACCUCCUGAUACCUUUGCUUAAUUACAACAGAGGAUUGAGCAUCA | 0.122
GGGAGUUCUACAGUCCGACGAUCGAUCAAGCCAGAUCAGCAUUCUCUAACUUGUUUGGUGGGGAACCAUUGUCAUACACCCGGUUCCGCCUUGCUCGGCAAGUAGAUGGAGAUAACAGUCAUGUGGAGAUGAAACUGGCUGCACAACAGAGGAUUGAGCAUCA | 0.168
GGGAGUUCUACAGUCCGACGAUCAAUGAUGUUGAAGUCAAAUGGAUUGAAUACCAGAAUAUGGUGAACUACCUCAUCCAAUGGAUCCGACACCAUGUGACCACAAUGUCUGAGAGAACAUUUCCUAAUAAUCCUGUAGAACUGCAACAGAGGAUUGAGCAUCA | 0.292
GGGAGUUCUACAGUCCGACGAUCCUUCUGAAGGCAGCUGCAGGUCCAUCCCAUUGACAUAGCUGCUAUGGCACAGGAGCUUUGCCGCUGUGGAACCAACACUGCUUUUGCAUACUGUGUAGAAGAAUUCUUUAGGAGUGGGGACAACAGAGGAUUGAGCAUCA | 0.471

Set 2
Target: RNA binding protein fox-1 homolog 2, RRM domain, GST-SBP tag (RBFOX2, Homo sapiens, UniProt O43251-10, residues 100-194)
Method: RNA Bind-n-Seq
Form: RNA
Matrix: in vitro
Tested at: 365 nM
Setting: natural RNA segment, single round, ends assumed
Baseline: no-protein control
Reading: higher = stronger binding
Target sequence (chain): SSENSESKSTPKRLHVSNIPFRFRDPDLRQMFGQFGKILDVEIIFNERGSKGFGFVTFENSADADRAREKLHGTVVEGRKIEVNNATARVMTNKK
Oligonucleotide | RBNS enrichment (R)
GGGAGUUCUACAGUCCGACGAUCAGUCAUGAAUGUUUUCUUGCCAGGGUCAGUGUUCCCAGGACCUUAGUGCAUGGUCGGGGCAGGAACUGGUGCAUGGAGGCUGCUGGGACCUGGUGAACAGUGUGUGAUUUUGGAAUUCUCGGGUGCCAA | 2.75
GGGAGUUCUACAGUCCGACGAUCGGGAGAUCUGUCAGCUCAUUCUUGCCUUACUCCAAUGAUGGCCCAGGUGGAAAAGUAGCAGCUGUAUCGGGCUUCCUCAUCCUGCCUGUUCCCCCACACCUGCCAGGAUAUGGAAUUCUCGGGUGCCAA | 0.344
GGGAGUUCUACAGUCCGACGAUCAUUUUCUUCAUGGGUUUAUGUUUUCGUUUCAUUUUGGACUCAAUUUCACAUCACCAAAUUCCUCAUUUAUACUUGGGGAAAAAACAAGGCCAUAUGUAAAAACCCUUCCAUGGAAUUCUCGGGUGCCAA | 0.322
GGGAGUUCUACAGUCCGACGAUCGCUCCUACCUCCUGCGACACCAGCGCACCCACAGCCACGAGAGGCCCUACAGCUGCCCCGAGUGUGGCAAGUGCUAUAGCCAGAACUCGUCCCUGCGCAGUCACCAAAGGUGGAAUUCUCGGGUGCCAA | 0.38
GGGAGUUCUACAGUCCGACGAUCAUUUGUGUUUUUGGAGUCCUCAGCUCACAUGUCUUGUUCCUCCUUCAGCACAAGCUAGGGGAGAUCCUACCAACACUGAUAGGUCAGUCAUUGAUGGCAAUUUGAAUGUGUGGAAUUCUCGGGUGCCAA | 1.96
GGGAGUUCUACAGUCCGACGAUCGAGACGAAGCUGUGUCAUCAAGAGCUCAGUGGGUGCGAGGAAAGUAUGAUCCAGCGCUCAGCCUUCGCUCUAGGAUGCUGUGGUCCCCAUUCCCAGUUCCUCCAGUGCCAUGGAAUUCUCGGGUGCCAA | 2.09
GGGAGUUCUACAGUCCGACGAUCCCAGGCGCUUAAGGGACAGAUACAUCACAUCCUAAGUUUGGGAAAGGCCUUUGACCCAUGUCAUCUGAGCGUCUCCUCCAGUAGCUCUGAAAGCUGUGGACACCAAUGGCUGGAAUUCUCGGGUGCCAA | 0.248
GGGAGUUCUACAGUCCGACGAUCGCCUGAGGGCCUCCUAAAAGGUUUAAAUGUCCACGCCUCUCCAGUUGCUGAAGUAGGGUCUGAGAGAACCCUGGCAUCAGCAGACCCAGGGUGCUUCUGUCUCCUGCAGAUGGAAUUCUCGGGUGCCAA | 0.411
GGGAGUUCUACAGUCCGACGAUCUGUUGUACAUCUCAGGAACCCUCGGUUCCUCCACGGAUGGACGACUGCAGAAUAGAGCAGAAUAGAGAAAGUAAGCCUGAAGCUGAGUGCCUCAGCCACAAACCUAAAGGUGGAAUUCUCGGGUGCCAA | 0.264

Set 3
Target: ABI1, truncated, D143A, DHFR fusion (Arabidopsis thaliana)
Method: DHFR PCA, deep sequencing
Matrix: yeast
Setting: methotrexate growth selection, single substitutions
Added: (+)-ABA 17 µM
Baseline: wild-type fitted maximum
Reading: higher = stronger binding
Starting sequence: PYL1, truncated, DHFR fusion (Arabidopsis thaliana); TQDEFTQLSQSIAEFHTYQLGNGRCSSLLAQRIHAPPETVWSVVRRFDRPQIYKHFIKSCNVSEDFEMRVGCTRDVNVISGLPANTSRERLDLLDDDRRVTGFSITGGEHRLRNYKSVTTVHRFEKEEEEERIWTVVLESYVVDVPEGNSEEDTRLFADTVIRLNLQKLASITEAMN
Change | relative binding score [%]
R123H | 86.5
S117C | 22.6
Q19W | 55.2
S26R | 54.2
T120Q | 6.04
L156N | 73
D65E | 82.3
G21E | 86.8
H122Q | 21.3
F103R | -13.5
S11H | 80.5
S171L | 81.1
T135L | -4.09
W134G | 87.6
E109W | 14.5
Y53P | -6.52

Set 4
Target: CCNF, cyclin fold, Cln2 fusion (human)
Method: yeast growth competition, sequencing
Matrix: yeast
Setting: strong parent motif
Baseline: not given
Reading: higher = stronger binding
Starting sequence: BRCA2 docking peptide (human); PSIKRNLLNEFDR
Change | normalised enrichment score
S2A | 1.7
E10I | 2.81
D12F | 3.4
N9M | 4.86
I3W | 1.52
N6P | 1.27
L7K | 0.369
D12G | 1.56
I3R | 1.11
N9Q | 3.6
F11P | 0.227
N6M | 0.951
N9H | 3.48
D12H | 1.95
I3T | 2.01
I3Q | 0.865
K4N | 3.44

Repeated from above (set 1):
Oligonucleotide | bound/input enrichment [ratio]
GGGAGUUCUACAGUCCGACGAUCUCUGAGAAUUACAAACAGAAGAUAGAAAGAAGUCUUAAAGCUGGUACAGUUAAAGAAUGUAUCCGUCUCAGAAGCUGUGUAUGUUUAUGUGAUAGAAUCUAAAUAAAAUACAGACAUCUACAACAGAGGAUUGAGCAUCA | 0.256
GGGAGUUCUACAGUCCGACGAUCUGGUUCUCCUCCAACUGAGAAAGCUUACAGUACAAUUUAAAGUGGGUCUCGCCUGCACUUACCCGUGUCUGACGAAACAGUCUUACAUCUGCCUAAGUAAUAGAAGAGCCCUGCAGAAUACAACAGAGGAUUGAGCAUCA | 0.0996
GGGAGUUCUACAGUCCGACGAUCCCUGAGAUAGUGCUGUGGUUAUAAUGUCUUUUACUAUUGUAUUAAUGGCUAGCCUGUUACAUCCGACUGGGGGGGGGGUACAGAGGUCUGCUGUUUUGUGAGGCUUUUUGUUUUUUUGGGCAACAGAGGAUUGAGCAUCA | 1.46
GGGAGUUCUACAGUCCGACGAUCACAGCCAUGGCAACUAGUCUCACGAACGUAGGAAAUUCAUUUAGUGGCCCACCUAAUCCUUCCGUGUCUAGAUCUAGUAAGUUUCAGAACUCAUCAGUAGAAGAUGAUGAUGACGUUGUUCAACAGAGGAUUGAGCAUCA | 11
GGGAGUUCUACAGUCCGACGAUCAGCAAAGAAGAAGUUAUCCGCUUUUUGGAAAGUACCCCGGCCAGCCUGAAUCUGGAAGACACCGAAGACCUGUUCUCUUUGGCUCAGUAUUACUGUAGUAAGACGCCAGCUUCUUUUAGGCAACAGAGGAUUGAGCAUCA | 0.229
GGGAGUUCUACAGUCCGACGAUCUUAGGUUCACAUACCUGCCUGCUAGUCGGGCAACAUGAAGUAGGACAGUUCUGUUGAUUUUUCCGGGCCAUACUAAAGGGAAUGAGCUGAAACAGACCUCCUGAUACCUUUGCUUAAUUACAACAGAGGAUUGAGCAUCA | 0.122
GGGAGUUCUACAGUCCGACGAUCGAUCAAGCCAGAUCAGCAUUCUCUAACUUGUUUGGUGGGGAACCAUUGUCAUACACCCGGUUCCGCCUUGCUCGGCAAGUAGAUGGAGAUAACAGUCAUGUGGAGAUGAAACUGGCUGCACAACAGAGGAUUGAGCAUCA | 0.168
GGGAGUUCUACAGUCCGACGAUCAAUGAUGUUGAAGUCAAAUGGAUUGAAUACCAGAAUAUGGUGAACUACCUCAUCCAAUGGAUCCGACACCAUGUGACCACAAUGUCUGAGAGAACAUUUCCUAAUAAUCCUGUAGAACUGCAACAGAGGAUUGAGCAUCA | 0.292
